Published values collected from several papers.
A part holds a random share of what one study measured.

Series 1
Target: RNA binding protein fox-1 homolog 2, RRM domain, GST-SBP tag (RBFOX2, Homo sapiens, UniProt O43251-10, residues 100-194)
Technique: RNA Bind-n-Seq
Form: RNA
Medium: in vitro
Concentration: 365 nM
Setting: natural RNA segment, single round, ends assumed
Reference: no-protein control
Reading: higher = stronger binding
Constant ends, left off below: GGGAGUUCUACAGUCCGACGAUC … UGGAAUUCUCGGGUGCCAA
Construct (chain): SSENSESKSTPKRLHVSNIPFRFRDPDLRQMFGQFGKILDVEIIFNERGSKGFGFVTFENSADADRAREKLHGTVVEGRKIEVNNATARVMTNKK
Oligonucleotide | RBNS enrichment (R)
GAUUUGACAAAAUAACAUUUGAGUAUCCGAUUCGCCAUCACCCCCUACCCCAGAAAUAGGACAAUUCACUUCAUUGACCAAGAUGAUCACAUGGAAGGCGGCACAGAGGC | 0.384
GACUGUCAUCUUAUUUUUAAAAGUCAUUCUUUACGUUUAAAAUUUUAAAAUAAAAACCUUCUGAGGUAUUGAUGUAGUCCACCGUGUAAAUGUUACCUUCUCUCCAUGCU | 0.2
GGUCGCCUUGUUGGUUCUGAGCCCUGGGGCUCUGACUUCUGGAUGUGCAUGUAGAACACAAGAAGACCCUUUUCUUCUGGAUCCUCUGCUAGCUACCAUCUAAACUGUCC | 2.34
CAAGAAAUACCCGCUCCUCACCUACUCCCUCAUCCUACCAAGGUGCCUGAAAAUGUUCAAGACUUAUGUUCAGGGUGGGAUGAUGGAACCGAGGGCUUCAUCAAAGUGAG | 0.465
UAGUUUAGUGGCAGUGGGAAUCUUUGGACUUCAUUUACCUCUCUCAUUAUUUCUAUUACCAUGGAUAAAAAAGUCAGCUGCUACGUUGAUAUCCCUUCUAUGAGCACAUU | 0.63
ACAACCUACCCAUCAUCCCUAGUGUGUCCCGUCUCCUCCUGCCACCUGUCUGUAUUAUUCUGACCCAGGGGAGUCAGUCACUGUGGGGCCUCCUUCCUCUGCUGGUAUAC | 0.593
GGCUCCGUCCUGACUGCCCUGUGCCCUGGAAAAGCAGCAAUAGCAUCCGCCCCUUAGAGCCCUCUGGCUAGAGGAGCCACCAGUGGAAAGGAAGACCCUCCAUCCUCUGG | 0.433
AGCCGCAAGUCUCAGGGGGCUUUUGUCUGAGGACCUUCUUGGGGCCAGUCUCUGAGGACGCUGCCACCCUAGAGCACAUGCAUGCCCAGCCAUUCUUCCUGCUUCUGGCC | 4
UUUGAGUGUAAAGACUCACAGGUGACCUGCUAUCGAGAUAGCCAGAGGGUCAGGAGAGAAUGGGGGAGGAGGCGGUCAGGCUGCUGAGGAAACACCACAGGCUGAACGGG | 0.738
CCUGGGUUUCCUUGGCUUCCUGCAGCAAAUUGGGCAGUUCUCUGCCCCUUGCCUAAAAGCCUGUACCUCUGGAUUGGCGGAAGUAAAUCUGGAAGGAUUCUCACUCGUAU | 0.196
UUGACUAUGAAUGUUAUCGGAUUACUGAAUUGUAUCAAUUUGUUUGUGUUCAAUAUCAGCUUUGAUAAUUGUGUACCUUAAGAUAUUGAAGGAGAAAAUAGAUAAUUUAC | 4.14
UGUGAACUUUUUCUAGGUGGCAGGACAAAUUGCGCCCAUUUAGAGGAUGUGGCUGUAACCUGCUGGAUGGGACUCCAUAGCUCCUUCCCAGGACCCCUCAGCUCCCCGGC | 0.175

Series 2
Target: Histone acetyltransferase KAT6A, both winged helices, GST fusion (KAT6A, Homo sapiens, UniProt Q92794, residues 1-181)
Technique: protein binding microarray
Form: double-stranded DNA, one strand shown
Medium: in vitro
Concentration: not given
Setting: 8-mer, flanks averaged, mean of 2 arrays, mostly near background
Reference: not given
Reading: higher = stronger binding
Residues (chain): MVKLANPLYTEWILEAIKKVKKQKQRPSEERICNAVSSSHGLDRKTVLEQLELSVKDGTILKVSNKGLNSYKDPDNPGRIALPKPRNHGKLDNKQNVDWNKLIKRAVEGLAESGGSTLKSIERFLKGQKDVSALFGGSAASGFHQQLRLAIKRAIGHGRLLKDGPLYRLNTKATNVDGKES
Oligonucleotide | E-score
ATGTTGAC | 0.0322
CCGTCCGC | 0.318
ATTTCCAC | -0.0516
GGACAAAC | -0.00848
GACTATCA | -0.117
CCTCCAGA | -0.126
CGCATTGC | 0.159
ATTTACGG | 0.2
CATCGCCA | 0.168
ATCTCACG | 0.02
GCGAGTTA | 0.108
AATGCAAT | -0.13
CGTCCCAG | -0.15
AACTCGCC | 0.0359
CTCGCTCC | -0.0418
CAGGATGA | -0.155

Series 3
Target: Hepatocyte nuclear factor 3-alpha (Foxa1, Mus musculus, UniProt P35582, residues 1-468, full length assumed)
Technique: EMSA with sequencing
Form: double-stranded DNA, one strand shown
Medium: in vitro
Concentration: 10 and 20 nM
Setting: whole designed probe, mean of two concentrations, ends assumed
Reference: negative control set to 0
Reading: higher = stronger binding
Constant ends, left off below: GTGAGCGGTGCCCATTGATGGGGAAC … TTTCACTGGGATCGTGGGGAC
Residues (chain): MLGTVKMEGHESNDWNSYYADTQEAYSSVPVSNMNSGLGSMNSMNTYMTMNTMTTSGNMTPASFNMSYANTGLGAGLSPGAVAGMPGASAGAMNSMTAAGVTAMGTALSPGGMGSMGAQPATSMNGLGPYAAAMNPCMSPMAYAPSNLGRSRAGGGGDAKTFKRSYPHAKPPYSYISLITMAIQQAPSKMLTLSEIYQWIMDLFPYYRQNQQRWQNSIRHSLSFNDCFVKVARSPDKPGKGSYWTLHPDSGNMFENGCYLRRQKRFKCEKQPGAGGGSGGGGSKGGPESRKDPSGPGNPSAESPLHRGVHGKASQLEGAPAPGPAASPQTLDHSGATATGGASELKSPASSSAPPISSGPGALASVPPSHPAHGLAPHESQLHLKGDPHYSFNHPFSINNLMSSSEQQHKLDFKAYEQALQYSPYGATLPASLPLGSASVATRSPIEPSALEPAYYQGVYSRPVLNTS
Oligonucleotide | normalised bound fraction
CCTGGCTGTGTGCTAATGGACAGGAGAAGAACTTGGATTTTGATAGCTTCTATATTACTTATAATTGTGTACAAATATTTACATTTATTGCCCTTGTTTACTTTTATGTTTATGAGCTTACTTGTTCAATGTCCCTCAACTGAAAGTGCATCTCAAAATGAGATTTATGAATTTGTACATTTGAGTTCTGTGT | 0.494 ratio
ACTCGTATACTTATGTGAATGTATATATTTATGTGTTGATAAATAAAATGATACACAAAAATTAGAAAATAACATTGAAAGACTGAACATAAAAGTAATCTAGAAGAGATTAATTCTCGAATGCACAGTTTAAAAAGAATCAAAAGTATATCTTCAAGCTCCTTAGAATATAATGAAAATGGGGACTTATAAT | 0.103 ratio
ATCTTCCCCCTCTTCCTTGCCCCACCAGCTCACCTTCCCGGGTCAAAGTAAACAAGTGTTTACTTTGAAGCCGGCATTCGTTAACCCTCTTCACGCGCATACTGCCAGAGCAAACAGATCTAACATGGTCCTTTGGCGACGCCAGGCTCCGGGAGAGCAAAGCACCGTGTCAGGGCCATGATCCGGGGTGGCC | 0.47 ratio
AAGCGCTTGAATAAAACAAATGCAATTGTAAAAAATGCACATTCTTCAAGTGTTTGCACTTTCCCTAGGTTTCTTTTATAATGAATATTTTTCATGTTTACATTTGTGTGACTTCAGAAAGGTGAATATCCTACGAAATTAGTAAGGCAGGATTATATTTGCTTTGTCCACTCACTGTAAGCTCCTCTGACCC | 0.43 ratio
ATCTTCCCCCTCTTCCTTGCCCCACCAGCTCACCTACGGGGGTTATTTGCAGATAGGAAAATAAATAAAGCCGGCATTCGTTAACGCAGTTCACGCGCATACTGCTGTTTGCTCTGGATCTAACATGGTCCTTTGGCGAGGCGTGGCTCCGGGAGAGCAAAGCACCGTGTCAGGGCCATGATCCGGGCTCGCC | 0.341 ratio
GCTATGTTGCCCAGGCTGGTCTTGAACTCCTGGCCTCAGGCTGTCCTCCTGCTTTGGCCTCTCAAAGTGCTGTGATTACAGGCATGAGCCACTGTAAACACAGTATTTAAATAAGCAATCCTCACACTGGGAGGGAGTGAAGGATGCCCCTCTTTGCCCTGGAAGGTACATCAGAAAAAGCCTACCAGTGGGC | 0.188 ratio
AAGTTACTAAGTTATTGTAAAACAAAAAAGAAAACAAAACAAAACAGGATTTTAGCCAAAGCTGCCTATATTCACAGCAGAGATCTGAACCACTTGTTTACACTGAGGTGATGTGGAGTGTCTCCCAGTACCTCTGAAACTAGAAAAGTCTATATGTTCTCCCACATTAAGCAGGCCAAAAAGTATTTTGTTC | 0.287 ratio
ATTGTACCTAGCTTCAATACAGTTATCTAAACCAGGAAAATGGTTTTCTGACTGTATTAGTCGCCTAGGGCTGCTTTAATAGGTCTTGCAAAAGTACTCTTATACTTGTCTTATGACTCAGCAATTCCACCGTTAGTATTTACCCCAAAATGATAAGCAATTCTGCAAATATGCTTCAGTTTACATATTTAGA | 0.123 ratio

Series 4
Target: RING finger protein unkempt homolog, zinc fingers 1-6, GST-SBP tag (UNK, Homo sapiens, UniProt Q9C0B0, residues 30-357)
Chain of UniProt Q9C0B0 (30-357, looked up): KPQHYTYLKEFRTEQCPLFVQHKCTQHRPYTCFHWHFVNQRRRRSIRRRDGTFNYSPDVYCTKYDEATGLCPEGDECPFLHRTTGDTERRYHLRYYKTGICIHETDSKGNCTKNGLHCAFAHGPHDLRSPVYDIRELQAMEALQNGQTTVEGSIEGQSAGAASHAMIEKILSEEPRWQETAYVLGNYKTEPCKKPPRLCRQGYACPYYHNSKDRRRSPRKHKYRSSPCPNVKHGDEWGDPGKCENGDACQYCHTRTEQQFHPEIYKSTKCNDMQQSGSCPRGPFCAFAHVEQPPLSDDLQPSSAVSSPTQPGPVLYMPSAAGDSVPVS
Technique: RNA Bind-n-Seq
Form: RNA
Medium: in vitro
Concentration: not given
Setting: RNA with constant flanks, human and mouse sites, ends assumed
Reference: input RNA pool
Reading: higher = stronger binding
Constant ends, left off below: GGGAGUUCUACAGUCCGACGAUC … CAACAGAGGAUUGAGCAUCA
Oligonucleotide | bound/input enrichment
AGCGGUUAGAUAAGGUAGUAGAUUCCAUGGAUGCAUUAGAUAAAGUUGUCCAGGAAAGAGAAGAUGCCCUAAGGCUUCUUCAGACUGGUCAAGAAAGAGCUAGACCUGGUGCUUGGAGAA | 3.01 ratio
AUCAUUGAAGCAUUCUAUGGAGGCUCCCAUAAACAGCUGGUGGAUCUUCUUCAAGAAGAGUUAGGAGACUGUGUCGUUUAUACCCUUCCUGCAAAGAAAUGGCAUUGGAGAGCCCGGACA | 0.316 ratio
GGAUCACCAGGAGAUGAAUUUUGUAAGCAGCGCCUUCCUCAACUAAAUUCCAAGGAUAAUAAUUUUUUGACCUGUACAGAAGAAGAUGGGGUGCUGGUGUACCACCACGCCCAGGAUGUC | 0.218 ratio
ACAGUAUGUUCCCCUGUGCCCAUGUUGCGGGACCUGACACAGAACACUGCAGUCAGUAUUAAUUUUAAAGAUCCACAGUUUGCUGAAGAUUAUGUUUUUAAAGCUGCAAUGCUUCCAGGA | 0.151 ratio
CUAGCAGUUAUAAGGCACCUUGAAAUAAAUUGUUUGUGCCUGGAAAUGCAGGGAGGGCAAUAGCUUUGUAAAUUGGUUUACAUUUUUCUCCUUGAAUUUUUCUAGGGUCCUAGUGCUUCC | 1.09 ratio
GAACGAGGACGCCUGAAGGAAGAGCUGGAAGAGGCUCGGGACAUAGCCCGGCGGCGCUCUUUAGGGAAUAUCAAGUUUAUUGGAGAGUUGUUCAAACUGAAGAUGUUAACAGAGGCAAUA | 11.1 ratio
GUGACAACUGGUACACUAGGAUUUGGAGAUAAAUUCAAAAGGCCUGUGGGCUCUUGGGAGUGUCCAGUCUGCUGUGUUUGUAAUAAGGCAGAAGACAACAGAUGUGUUUCCUGUACAUCU | 0.153 ratio
CCUCUACCAGAUGACUAUAAUUGCAACGUAGAGCUUGCUCUGACUUCUGAUGGCAGGACAAUAGUAUGCUACCACCCUUCUGUGGACAUUCCAUAUGAACACACAAAACCUAUCCCUCGG | 0.236 ratio
AGGUUGGUGUGUGUGUGAGAAUGCCAACAGACACUGAUGAGUCAGGGUAACGUCUUUUCUGUAAAUAUAUAAGUUUAGGCACUGACAUAAACUGUUCCAUCUAAUUGAUUUUUUCUCCUC | 0.213 ratio
AAGCGGGUAGAUUCGGAGUCAGACUCAGACUCUGAAGAUGAUAUAAAUUCAGUGAUGAAGUGUUUGCCGGAAAAUUCAGCCCCUUUGAUUGAAUUCGCAAAUGUUUCCCAGGGUAUUUUA | 0.206 ratio
GACAGCCGGCUGAAGAUGAGAGCAGAGCUGGGCGAGUACAUCCGGAGGAUCACCACUGUGCCGCUGCCCACUGCGCCCAACGUCCCCAUCAUUGACUAUGAGGUGUCCAUCAGUGGAGAG | 0.102 ratio

Excerpt of the above (series 2):
Oligonucleotide | E-score
GACTATCA | -0.117
CGTCCCAG | -0.15
CGCATTGC | 0.159
CCTCCAGA | -0.126
AACTCGCC | 0.0359
AATGCAAT | -0.13
ATTTACGG | 0.2
CATCGCCA | 0.168
